Results gathered from unrelated publications.
Numbered parts are unrelated; each lists some results of a single study. Substitutions count along the parent as printed.

Set 1
Target: Histone acetyltransferase KAT6A, both winged helices, GST fusion (KAT6A, Homo sapiens, UniProt Q92794, residues 1-181)
Method: protein binding microarray
Form: double-stranded DNA, one strand shown
Matrix: in vitro
Concentration: not given
Notes: 8-mer, flanks averaged, mean of 2 arrays, mostly near background
Reference: not given
Reading: higher = stronger binding
Construct (chain): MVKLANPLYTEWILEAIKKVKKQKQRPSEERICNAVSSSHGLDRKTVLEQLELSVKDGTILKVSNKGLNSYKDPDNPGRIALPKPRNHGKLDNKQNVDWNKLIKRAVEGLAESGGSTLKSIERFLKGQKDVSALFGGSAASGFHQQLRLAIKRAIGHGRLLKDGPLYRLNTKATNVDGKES
`CTCTCAGC` gave an E-score of -0.0766.
`CCCGGAAC` gave an E-score of 0.0814.
For `TCATTCGA`, the E-score was -0.0804.
`CTGTGCTC` has an E-score of -0.0718.
`ATCAAGAA` has an E-score of -0.146.
`AGGGTCCG` has an E-score of 0.0482.
`ATCTACCA` has an E-score of -0.154.
For `GCCTGACA`, the E-score was -0.0898.
For `AGACATTA`, the E-score was 0.00291.
With `CTAATCGA` the E-score was -0.0323.
`TGCTACAA` gave an E-score of -0.192.
For `GAAGGAGC`, the E-score was -0.0225.
`CTGTCACA` has an E-score of 0.075.
The E-score of `ACTAGAGG` is reported as -0.141.
The E-score of `ATCTCTTA` is reported as -0.091.
`CTGATTGA` has an E-score of -0.0495.
`AGGCCATG` gave an E-score of -0.195.
The E-score of `GTCCATTA` is reported as -0.0746.
The E-score of `GGCTTTAA` is reported as -0.12.
`CGTATCCC` has an E-score of 0.191.
`CCCGGCTA` has an E-score of 0.173.

Set 2
Target: Ras GTPase-activating protein-binding protein 1, RRM domain (G3BP1, Homo sapiens, UniProt Q13283)
Chain of UniProt Q13283 (whole entry, looked up): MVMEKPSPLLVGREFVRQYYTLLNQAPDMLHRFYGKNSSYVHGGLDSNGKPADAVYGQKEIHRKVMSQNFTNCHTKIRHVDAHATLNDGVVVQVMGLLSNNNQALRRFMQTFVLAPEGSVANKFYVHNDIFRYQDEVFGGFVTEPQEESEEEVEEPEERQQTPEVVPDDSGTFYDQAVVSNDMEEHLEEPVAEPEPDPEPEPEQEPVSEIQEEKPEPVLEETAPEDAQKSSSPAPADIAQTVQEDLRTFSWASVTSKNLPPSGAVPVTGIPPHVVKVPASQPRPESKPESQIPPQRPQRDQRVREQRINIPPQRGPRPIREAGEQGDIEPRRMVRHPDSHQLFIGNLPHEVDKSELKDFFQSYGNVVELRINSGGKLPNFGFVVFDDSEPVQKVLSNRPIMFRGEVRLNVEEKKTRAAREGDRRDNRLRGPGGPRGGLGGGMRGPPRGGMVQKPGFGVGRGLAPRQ
Method: RNA Bind-n-Seq
Form: RNA
Matrix: in vitro
Concentration: 1 µM
Notes: whole 134-nt RNA, ends assumed
Together with: 150 mM KCl
Reference: input library
Reading: higher = stronger binding
For `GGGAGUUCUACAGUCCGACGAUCUUUCUCCAAGGACAUCAAGGUGCCCAAGAGCCGCUACCUGGGCUACAUCAAGGACUACGAGGGAGCGACGCUGAUGGAGUGUGAGCUGAAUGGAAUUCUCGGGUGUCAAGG`, the log2 enrichment was -0.307.
`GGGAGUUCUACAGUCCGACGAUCAAGUCCUGUGCUACACAUCGUAUGUACCGAAUCGGGGUUUUUGGGGUGGGGUGGGGAAAGUAUUAUGUUACGCCGUUCGGAUCUGCACUUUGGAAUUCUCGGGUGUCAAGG` gave a log2 enrichment of 0.732.
`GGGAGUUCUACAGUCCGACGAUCUCAAGUCCUGUGCUACACAUCGUAUGUACCGAAUCGGUUUGGUUUGGUUUUUGGAAAGUAUUAUGUUACGCCGUUCGGAUCUGCACUUCCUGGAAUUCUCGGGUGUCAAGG` has a log2 enrichment of -0.245.
For `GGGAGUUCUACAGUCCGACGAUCUCAAGUCCUGUGCUACACAUCGUAUGUACCGAAUCGGUUUUUUUGGAGGAAAGGAAAGUAUUAUGUUACGCCGUUCGGAUCUGCACUUCCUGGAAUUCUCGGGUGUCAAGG`, the log2 enrichment was -0.129.
With `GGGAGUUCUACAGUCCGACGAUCUGGGAGGUGGAUUUUGUUUAUUUUUUUAGCUCAUUUCCAGGGGUGGGAAUUUUUUUUUAAUAUGUGUCAUGAAUAAAGUUGUUUUUUAAAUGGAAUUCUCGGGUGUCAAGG` the log2 enrichment was 2.12.
The log2 enrichment of `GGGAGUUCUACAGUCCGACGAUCUGACUUUAGAGGAGGAUCUGAUGGAUAUGGCAGUGGACGUGGAUUUGGGGAUGGCUAUAAUGGGUAUGGAGGAGGACCUGGAGGUGGCAAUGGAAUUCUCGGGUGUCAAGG` is reported as -0.799.
`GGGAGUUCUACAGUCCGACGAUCUCAAGUCCUGUGCUACACAUCGUAUGUACCGAAUCGGAAAAAAAGGUGGAAAGGAAAGUAUUAUGUUACGCCGUUCGGAUCUGCACUUCCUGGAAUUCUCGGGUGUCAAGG` has a log2 enrichment of -0.137.
The log2 enrichment of `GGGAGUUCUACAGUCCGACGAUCGUCCUGUGCUACACAUCGUAUGUACCGAAUCGGUUUUUUUGGAAAAAGGAAAAAAAGGAAAGUAUUAUGUUACGCCGUUCGGAUCUGCACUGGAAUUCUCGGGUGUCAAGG` is reported as -0.15.
`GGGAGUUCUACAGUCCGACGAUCAAGUCCUGUGCUACACAUCGUAUGUACCGAAUCGGAAAGGAAAAAGGUUUUUUUGGAAAGUAUUAUGUUACGCCGUUCGGAUCUGCACUUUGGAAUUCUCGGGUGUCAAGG` gave a log2 enrichment of -0.185.
The log2 enrichment of `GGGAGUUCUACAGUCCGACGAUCCCUGUGCUACACAUCGUAUGUACCGAAUCGGGGUUUUUGGGGAAAGGGGAAAAAAAGGGGAAAGUAUUAUGUUACGCCGUUCGGAUCUGCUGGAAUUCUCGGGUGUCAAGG` is reported as 0.399.

Set 3
Target: CCNB2, cyclin fold, Cln2 fusion (human)
Method: yeast growth competition, sequencing
Matrix: yeast
Notes: weak parent motif
Reference: not given
Reading: higher = stronger binding
Starting sequence: REPIN1 docking peptide (human); QSFRGWVALVLHL; partner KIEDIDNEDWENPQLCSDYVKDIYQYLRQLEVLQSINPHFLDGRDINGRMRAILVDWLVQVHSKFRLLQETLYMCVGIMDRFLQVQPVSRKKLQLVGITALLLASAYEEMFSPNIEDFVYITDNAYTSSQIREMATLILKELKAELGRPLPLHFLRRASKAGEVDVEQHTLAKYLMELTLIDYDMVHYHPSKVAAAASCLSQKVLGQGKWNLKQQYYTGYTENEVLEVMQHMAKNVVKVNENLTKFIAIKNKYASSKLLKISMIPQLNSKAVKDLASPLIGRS
`G5A`: “normalised enrichment score” 0.626.
`L9A`: “normalised enrichment score” -0.34.
Under “normalised enrichment score”, `F3A` is recorded as 0.896.
For `V7A`, “normalised enrichment score” read 0.505.
For `V10A`, “normalised enrichment score” read -0.0536.
`W6A`: “normalised enrichment score” -0.139.

Set 4
Target: RNA binding protein fox-1 homolog 2, RRM domain, GST-SBP tag (RBFOX2, Homo sapiens, UniProt O43251-10, residues 100-194)
Method: RNA Bind-n-Seq
Form: RNA
Matrix: in vitro
Concentration: 365 nM
Notes: natural RNA segment, single round, ends assumed
Reference: no-protein control
Reading: higher = stronger binding
Residues (chain): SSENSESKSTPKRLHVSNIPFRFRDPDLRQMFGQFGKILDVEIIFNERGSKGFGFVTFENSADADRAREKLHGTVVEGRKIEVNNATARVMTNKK
`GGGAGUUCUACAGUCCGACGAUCUAGUUCCUGUGACAUUCCGCCUUCCUUCCAUGUAGUCCCUCUUGGUAAUCUACCACCAAGCUUGUGGACUUCACCCCAACAAAAUUGUAAGCGUUGUUAGGUUUUUGUGUUGGAAUUCUCGGGUGCCAA`: “RBNS enrichment (R)” 0.399.
`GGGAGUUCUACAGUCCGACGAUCUUUCUUCCCCCAACUUCUUGCAUGUUGAAGAUAUUUGAGCUAUUUUUCAUCUAAAAGAGUAAGGUAUUAGGCCCUUUUGUGGGAGCCCCAUGUUUUGUUUUUCUGAGUUGUGGAAUUCUCGGGUGCCAA`: “RBNS enrichment (R)” 12.3.
For `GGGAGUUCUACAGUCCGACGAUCGUGCUGCCUCAGCUUCCCGAGUAGCUAGGAUUACAGGUGCAUGCCACCACACCUGGCUAAUUUUUGUAUUUUAGUAGAGAUGGGGUUUCACCAUGUUGGCCAGGCUCGUCUGGAAUUCUCGGGUGCCAA`, “RBNS enrichment (R)” read 1.03.
`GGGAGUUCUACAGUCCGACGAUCAAAGGGUCAGGCCCGUCAGCAUCACUGAUGGGAAUAAAAGUAUUAAUGCUUUGUGACAGCCUCUGCCAUAAGAGUUGUGUGGUCCAGGGGGUCUGUGACCCCCCCCAGGGUGGAAUUCUCGGGUGCCAA`: “RBNS enrichment (R)” 0.266.
Under “RBNS enrichment (R)”, `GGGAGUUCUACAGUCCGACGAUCUCCUGAUUCUGUCCCGGGUUCUUUGCUACUUCCUUGAAAAUACUCUAGCUUCAUGCUGGGUCAAGGUGGUUUACCUGGAUGACCCCCCUCCCCCGCCCUCGCCCAUCCCAUGGAAUUCUCGGGUGCCAA` is recorded as 0.581.
`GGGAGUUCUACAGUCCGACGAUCGCCAGUCAUGGGAACAUGUCAAAGCCAACAGGAAGCAGAACCUGUAGCUUUCUCUGGCAUUAGGGAGAGAGAACCCUGCUUGCUUCCACUUAACUCCUGGUGGAAGAGGGUGGAAUUCUCGGGUGCCAA`: “RBNS enrichment (R)” 1.81.
For `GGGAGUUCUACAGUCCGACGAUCACUCAGAAAUUUUAAAUUUGAAAAAGAAAUCGAUUUUCAUCUGUAUGCCGUCAAGGAAGGAAUUCAGUUACAGGGCAUCUGUAACUUAAAUAUUGUAAGAAUAACUCAUAUGGAAUUCUCGGGUGCCAA`, “RBNS enrichment (R)” read 0.349.
For `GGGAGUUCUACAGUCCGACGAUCACAUGAUGACUGGAAGUCAUGUCUUCUAAUUGGUUGACAUUUUGCAAACAAAUAAAUUGUAAUCAAAAGAGCUCUAAAUUUGUAAUUUCUUUCUCCUUUCAAAAAAUGUCUGGAAUUCUCGGGUGCCAA`, “RBNS enrichment (R)” read 0.78.
`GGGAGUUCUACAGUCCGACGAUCUCCUAGGUGACAUUUUAGAAUUAAUACUUAAGUGUUGUUAAAUGGGGACAUGGAGCUUAAUCAUUGGUCAGGUUUGAAGUCUUUUGAAGCUAAGUAAUUUUAUUUAAUAUUGGAAUUCUCGGGUGCCAA` — result for “RBNS enrichment (R)”: 0.662.
For `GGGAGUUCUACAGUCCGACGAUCAUAUAGGAUCAGCUCCUUGACCUCUGAGGGGCAGGAGUGCUUCCUGGUGUGUGUAUUAGAAUCCCUUCCUGCCUUGUUUCAUGGCAGUGAAAUGCCUCUUGGUCCUGUCCUGGAAUUCUCGGGUGCCAA`, “RBNS enrichment (R)” read 0.977.
For `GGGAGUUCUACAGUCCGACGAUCGUGGCUUCUGCAACCAGCCCAUCCGACACGAGAUGGUGACCGCCUUGGGCACUCACUGGCACCCAGAGCAUUUCUGCUGCGUCAGUUGCGGGGAGCCCUUCGGAGAUGAGUGGAAUUCUCGGGUGCCAA`, “RBNS enrichment (R)” read 0.215.
`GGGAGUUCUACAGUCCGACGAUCUAUAUUUUAUCUCUUAUACCUGUAUCUCCCAACUAGAAACAGCUCCAGUGUUUUUAAGAGAAUGUUUCUUAAAACCAAUAGGAAACUUAAGCGAGGUUUCAUGACACAACUGGAAUUCUCGGGUGCCAA` — result for “RBNS enrichment (R)”: 0.549.

Some of these lines once more (set 2):
`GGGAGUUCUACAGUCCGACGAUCUCAAGUCCUGUGCUACACAUCGUAUGUACCGAAUCGGUUUGGUUUGGUUUUUGGAAAGUAUUAUGUUACGCCGUUCGGAUCUGCACUUCCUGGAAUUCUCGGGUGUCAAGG` has a log2 enrichment of -0.245.
For `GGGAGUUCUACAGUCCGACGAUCUCAAGUCCUGUGCUACACAUCGUAUGUACCGAAUCGGUUUUUUUGGAGGAAAGGAAAGUAUUAUGUUACGCCGUUCGGAUCUGCACUUCCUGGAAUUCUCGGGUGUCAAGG`, the log2 enrichment was -0.129.
With `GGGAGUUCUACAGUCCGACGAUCUGGGAGGUGGAUUUUGUUUAUUUUUUUAGCUCAUUUCCAGGGGUGGGAAUUUUUUUUUAAUAUGUGUCAUGAAUAAAGUUGUUUUUUAAAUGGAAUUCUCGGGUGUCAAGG` the log2 enrichment was 2.12.
The log2 enrichment of `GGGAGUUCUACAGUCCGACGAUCUGACUUUAGAGGAGGAUCUGAUGGAUAUGGCAGUGGACGUGGAUUUGGGGAUGGCUAUAAUGGGUAUGGAGGAGGACCUGGAGGUGGCAAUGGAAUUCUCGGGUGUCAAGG` is reported as -0.799.
